Experimental data gathered from unrelated publications.
Protocols differ between the studies behind these lines. ± gives the spread as reported.

CCn1cc(-c2cc(Cn3ccnc3)cc3c2CCN([C@H](c2cc(OC)ccn2)C2CC2)C3=O)c(C(F)(F)F)n1 — EC50 (NCI-H661; cell growth, inhibitor; 120 h): > 30000 nM
c1cc(-c2cc3ncc(OCC4CCNCC4)nc3cc2-c2cccc(N3CCCCC3)c2)cc(N2CCCCC2)c1 — EC50 (Jurkat; cell growth, XTT; 7 days): 700 ± 30 nM
O=C(Nc1cncc(-c2nc3ccccc3s2)c1)c1cc([N+](=O)[O-])c(N2CCNCC2)cc1Cl — EC50 (BJ fibroblasts; cell growth, CellTiter-Glo; 72 h): > 15300 nM
CCN(CC)CCNC(=O)c1c(C)[nH]c(/C=C2\C(=O)Nc3ccc(F)cc32)c1C — EC50 (A-375; cell viability, MTT; 72 h): 2900 ± 990 nM
C[C@]12CCCN1CC1=NNC(=O)c3cc(F)cc4[nH]c2c1c34 — EC50 (DLD-1 colorectal cancer cells; cell viability; concentration not given, together with: with temozolomide): > 3000 nM
C=C(NC(=O)C(=C)NC(=O)c1csc(C2=N[C@@H]3c4csc(n4)[C@H]4NC(=O)c5csc(n5)[C@H]([C@](C)(O)[C@@H](C)O)NC(=O)[C@H]5CSC(=N5)/C(=C/C)NC(=O)[C@H]([C@@H](C)O)NC(=O)c5csc(n5)[C@]3(CC2)NC(=O)[C@H](C)NC(=O)C(=C)NC(=O)[C@H](C)NC(=O)[C@H]([C@@H](C)CC)N[C@@H]2C=Cc3c([C@H](C)O)cc(nc3[C@H]2O)C(=O)O[C@@H]4C)n1)C(N)=O — EC50 (NCI-H358; cell viability): 1800 nM
COc1cc(-c2nn(CCN3CCC(N(C)C)CC3)c3ncnc(N)c23)ccc1NC(=O)OC(C)(C)C — EC50 (SKGT4; 120 h): 3790 nM
Cc1cc(Cl)c(Cl)cc1NC(=O)c1ccc(N2CCNCC2)nc1 — EC50 (BJ fibroblasts; cell growth, CellTiter-Glo; 72 h): > 24400 nM
CC(C)NCCCn1c(Sc2cc3c(cc2I)OCO3)nc2c(N)ncnc21 — EC50 (MYBPC3 iPSC-cardiomyocytes; refers to: MYH; 24 h): inactive
COc1cnc2cccc(N3CCc4c(cc(Cn5ccnc5C)cc4-c4cn(C)nc4C(F)(F)F)C3=O)c2c1 — EC50 (HGC-27; cell growth, inhibitor; 120 h): > 30000 nM
Clc1ccc(COc2cncc(-c3cnn(C4CCNCC4)c3)c2)c(Cl)c1 — EC50 (HMC3; phagocytosis, high-content imaging; geometric mean, together with: pHrodo-myelin uptake): 767 nM
CCn1cc(-c2cc(Cn3ccoc3=N)cc3c2CCN([C@@H](C)c2cc(OC)ccn2)C3=O)c(C(F)(F)F)n1 — EC50 (SK-MEL-24; cell growth, inhibitor; 120 h): 15.5 nM
N[C@@H](COCC(=O)N1CCC[C@H](C(=O)NCc2nc(-c3ccc(C(F)(F)F)cc3)cs2)C1)c1ccccc1 — EC50 (Jurkat; cytotoxicity): ~10000 nM
